{"data": "Experimental data from different studies", "TDP1": "Tyrosyl-DNA phosphodiesterase 1 (TDP1, Homo sapiens, UniProt Q9NUW8)", "note": "Numbers after ± are the reported error.", "chain of UniProt Q9NUW8 (whole entry, looked up)": "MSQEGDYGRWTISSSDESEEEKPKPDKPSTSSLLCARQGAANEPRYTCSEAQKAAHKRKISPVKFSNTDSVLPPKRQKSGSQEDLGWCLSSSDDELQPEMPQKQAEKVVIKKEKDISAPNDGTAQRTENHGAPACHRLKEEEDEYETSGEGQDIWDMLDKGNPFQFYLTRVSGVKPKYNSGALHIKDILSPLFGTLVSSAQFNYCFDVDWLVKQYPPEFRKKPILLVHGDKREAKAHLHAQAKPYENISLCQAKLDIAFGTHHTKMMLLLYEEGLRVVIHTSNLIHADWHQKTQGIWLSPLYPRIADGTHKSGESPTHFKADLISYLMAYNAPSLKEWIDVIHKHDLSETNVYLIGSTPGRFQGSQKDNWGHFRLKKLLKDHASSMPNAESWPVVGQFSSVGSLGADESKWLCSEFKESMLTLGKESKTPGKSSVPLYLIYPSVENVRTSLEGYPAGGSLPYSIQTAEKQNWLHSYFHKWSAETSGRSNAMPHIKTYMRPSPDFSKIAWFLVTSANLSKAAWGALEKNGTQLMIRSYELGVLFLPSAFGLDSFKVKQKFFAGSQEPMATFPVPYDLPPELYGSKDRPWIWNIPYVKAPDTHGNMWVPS"}
{"SMILES": "Cc1cccc(C)c1CNc1cc(C(=O)N2CCC2)cn2c(C)c(C)nc12", "assay": "histamine-stimulated acid secretion", "system": "pylorus-ligated rat", "conditions": "oral, 2 mg/kg, together with: histamine", "quantity": "inhibition", "value": "95%"}
{"SMILES": "CNS(=O)(=O)Nc1nccc(Cc2c(C)c3ccc(Oc4ncccc4F)cc3oc2=O)c1F", "target or system": "AGS", "assay": "cell viability", "conditions": "7 days", "quantity": "IC50", "value": "9.65 nM"}
{"SMILES": "COCC1CN(C2CCN(c3cc(OC)c(Nc4ncc(Br)c(Nc5ccc6c(c5P(C)(C)=O)OCCO6)n4)cc3C)CC2)C1", "assay": "RECIST 1.1", "system": "advanced EGFR-mutant NSCLC patients", "conditions": "30 mg once daily", "quantity": "objective response rate", "value": "0%"}
{"SMILES": "CC(C)C[C@H](NC(=O)CNC(=O)[C@H](CCC(N)=O)NC(=O)[C@H](CC(C)C)NC(=O)[C@H](CC(C)C)NC(=O)[C@H](CCCNC(=N)N)NC(=O)[C@H](CCC(N)=O)NC(=O)[C@H](CC(C)C)NC(=O)[C@H](CCCNC(=N)N)NC(=O)[C@H](C)NC(=O)CNC(=O)[C@H](CCC(=O)O)NC(=O)[C@H](CCCNC(=N)N)NC(=O)[C@H](CC(C)C)NC(=O)[C@H](CCCNC(=N)N)NC(=O)[C@H](CO)NC(=O)[C@H](CC(C)C)NC(=O)[C@H](CCC(=O)O)NC(=O)[C@H](CO)NC(=O)[C@@H](NC(=O)[C@H](Cc1ccccc1)NC(=O)[C@@H](NC(=O)CNC(=O)[C@H](CC(=O)O)NC(=O)C(C)(C)NC(=O)[C@@H](N)Cc1c[nH]cn1)[C@@H](C)O)[C@@H](C)O)C(=O)N[C@@H](CC(C)C)C(=O)N[C@@H](CCC(N)=O)C(=O)NCC(=O)N[C@@H](CC(C)C)C(=O)N[C@H](C(=O)NCC(=O)N[C@@H](CCCCNC(=O)COCCOCCNC(=O)COCCOCCNC(=O)CC[C@H](NC(=O)CCCCCCCCCCCCCCCCC(=O)O)C(=O)O)C(N)=O)C(C)C", "assay": "cAMP reporter gene", "system": "CRE-Luc mouse, stomach homogenate", "conditions": "subcutaneous, 300 nmol/kg, 6 h", "how to read": "baseline: vehicle", "quantity": "luciferase induction", "value": "5 fold"}
{"SMILES": "COc1ccc(C(=O)CCc2cc(C(CCc3ccc(O)cc3OC)c3ccc(O)cc3)c(O)cc2OC)cc1 (racemic)", "system": "human blood", "conditions": "30 µM, together with: A23187", "quantity": "15-HETE level", "value": "290 ± 104 pg/mL"}
{"SMILES": "O=C(OCc1cccc(O)c1O)c1ccc(O)c(CO)c1", "system": "C57BL/6J mice, wild type", "conditions": "dose not given, day 14, aneurysm hypertension model, together with: angiotensin II 0.8 mg/kg/d for 14 d", "quantity": "body weight", "value": "31.2 ± 2 g"}
{"SMILES": "Fc1cncc(-c2ccc3[nH]c4ncnc(N[C@H]5CC[C@H](N6CCOCC6)CC5)c4c3c2)c1", "assay": "measured: TNFα", "system": "C57BL/6 mice, serum", "conditions": "oral, 100 mg/kg, dosed 2 h before LPS, together with: LPS", "how to read": "baseline: vehicle", "quantity": "inhibition", "value": "76.7%"}
{"SMILES": "O=C(O)c1ccc(Nc2c(-c3ccc(CON=Cc4ccc(N5CCCC5=O)cc4)cc3)nc3cc(-c4ccccc4)ccn23)cc1", "target or system": "TDP1", "assay": "enzyme activity, inhibitor", "conditions": "100 µM", "quantity": "inhibition", "value": "90.7%"}
{"SMILES": "CCCCCc1ccc(S(=O)(=O)N2CC2C(=O)OC)cc1 (centres unmarked)", "system": "mouse, Lewis lung carcinoma", "conditions": "intraperitoneal, 15 mg/kg, 16 doses, day 10", "quantity": "tumour volume", "value": "201 mm3"}
{"SMILES": "CC[C@H](C)[C@@H](C(=O)N[C@@H](CC(C)C)C(=O)N[C@@H](CO)C(=O)N[C@@H](CO)C(=O)N[C@H](C(=O)N[C@@H](CCC(=O)O)C(=O)N[C@H](C(=O)NCC(=O)N[C@@H](CO)C(=O)NCC(=O)N[C@H](C(=O)N1C[C@H](O)C[C@H]1C(N)=O)[C@@H](C)O)C(C)C)[C@@H](C)O)N(C)C(=O)[C@H](C)NC(=O)CN(C)C(=O)[C@H](Cc1ccccc1)NC(=O)[C@H](CO)NC(=O)[C@H](CO)NC(=O)[C@H](CCCNC(=N)N)NC(=O)[C@H](CCC(N)=O)NC(=O)[C@H](CC(C)C)NC(=O)[C@H](Cc1ccccc1)NC(=O)[C@H](Cc1c[nH]cn1)NC(=O)[C@H](C)NC(=O)[C@H](CC(C)C)NC(=O)[C@H](CCCNC(=N)N)NC(=O)[C@H](CCC(N)=O)NC(=O)[C@@H](NC(=O)[C@H](C)NC(=O)[C@@H]1CSSC[C@H](NC(=O)[C@H](CCCNC(=N)N)NC(=O)CC[C@H](NC(=O)CCCCCCCCCCCCCCCCCCC(=O)O)C(=O)O)C(=O)N[C@@H](CC(N)=O)C(=O)N[C@@H]([C@@H](C)O)C(=O)N[C@@H](C)C(=O)N[C@@H]([C@@H](C)O)C(=O)N1)[C@@H](C)O", "system": "male Sprague-Dawley rats", "conditions": "subcutaneous, 30 nmol/kg single dose, 24 h", "how to read": "baseline: vehicle", "quantity": "food intake", "value": "77.3 ± 3.8%"}
{"SMILES": "O=[N][Fe]1([N]=O)[S](CCO)[Fe]([N]=O)([N]=O)[S]1CCO", "system": "aged C57BL/6JNarl mice on Western diet", "conditions": "po, 2.65 mg/kg daily, 16 weeks", "quantity": "body weight", "value": "40.5 ± 6.32 g"}
{"SMILES": "CN(C)c1ccc(C2CC(Nc3ccc(-c4ccc(NC5=NOC(c6ccc(N(C)C)cc6)C5)cc4)cc3)=NO2)cc1 (centres unmarked)", "assay": "carrageenan paw oedema", "system": "albino rat", "conditions": "oral, 50 mg/kg, 3 h", "quantity": "inhibition", "value": "22.3%"}
{"SMILES": "COc1cc2c(NC3CCN(C(C)C)CC3)cc(N3CCOCC3)nc2cc1OCCCN1CCCC1", "assay": "TMT proteomics, measured: YWHAB", "system": "5xFAD mice, hippocampus", "conditions": "dose not given", "how to read": "baseline: untreated 5xFAD mice", "quantity": "log2 fold change", "value": -0.0388}
{"SMILES": "C=CC(=O)Nc1cccc(Cn2ncc3cnc(Nc4cnn(CCOC)c4)nc32)c1", "target or system": "human p38-alpha", "assay": "KINOMEscan", "conditions": "100 nM", "how to read": "baseline: control", "quantity": "binding", "value": "100%"}
{"SMILES": "CN1CCCNC(=O)c2cccc(c2)C(=O)NCCCN(C)CCCNc2cccc3c2C(=O)c2cccc(c2C3=O)NCCC1", "target or system": "SAS", "assay": "RNA-Seq, measured: PNN mRNA", "conditions": "5 µM, 24 h", "how to read": "baseline: untreated cells", "quantity": "log2 fold change", "value": 0.0631}
{"SMILES": "COc1cc(O)ccc1CCC(c1ccc(O)cc1)c1cc2c(c(C)c1O)OC(c1ccc(O)cc1)CC2 (mixture of isomers)", "assay": "measured: PGD2", "system": "human whole blood", "conditions": "30 µM, together with: Escherichia coli", "quantity": "amount", "value": "162 ± 76 pg/mL blood"}
{"SMILES": "COc1ccc(Br)c(C=NOCc2ccc(-c3nc4cc(-c5ccccc5)ccn4c3Nc3ccc(C(=O)O)cc3)cc2)c1OC (mixture of isomers)", "target or system": "TDP1", "assay": "enzyme activity, inhibitor", "conditions": "100 µM, unpurified compound", "quantity": "inhibition", "value": "71.4%"}
{"SMILES": "COCCOCCOCCNC(=O)Cc1cc(CC(=O)N[C@H]2C[C@H]3C(=O)Nc4cc(OCCOCCOCCOC)cc(n4)C(=O)N4CCC[C@H]4C(=O)Nc4cc(OCCOCCOCCOC)cc(n4)C(=O)N4CCC[C@H]4C(=O)Nc4cc(OCCOCCOCCOC)cc(n4)C(=O)N3C2)cc(CC(=O)N[C@H]2C[C@H]3C(=O)Nc4cc(OCCOCCOCCOC)cc(n4)C(=O)N4CCC[C@H]4C(=O)Nc4cc(OCCOCCOCCOC)cc(n4)C(=O)N4CCC[C@H]4C(=O)Nc4cc(OCCOCCOCCOC)cc(n4)C(=O)N3C2)c1", "assay": "anion binding, ITC", "system": "water", "conditions": "298 K, together with: sodium sulfate", "quantity": "TΔS", "value": "24.8 ± 0.2 kJ/mol"}
{"SMILES": "COC1CN([C@H]2CC[C@H]([C@@]3(C)Oc4c(Cl)cc(C(=O)NCc5c(SC)cc(C)[nH]c5=O)c(C)c4O3)CC2)C1", "assay": "RNA-seq, measured: HPSE", "system": "human, whole blood", "conditions": "dose not given, 24 h", "how to read": "baseline: pretreatment baseline", "quantity": "log2 fold change", "value": 1.54}
{"SMILES": "C=CC(=O)N1[C@H](c2ccc3c(c2)OCO3)c2[nH]c3ccccc3c2C[C@@H]1C(=O)N1CCN(C)CC1", "target or system": "human cyclin E1 N112C-3xFLAG:CDK2", "assay": "co-IP with TMT proteomics, measured: TUBA1A", "conditions": "concentration not given, Q71U36", "how to read": "baseline: wild type DMSO", "quantity": "relative co-enrichment", "value": "112%"}
{"SMILES": "FCCOCCOCCOCCn1cc(COc2ccc(-c3nncnn3)cc2)nn1", "system": "DPBS", "conditions": "37 °C, together with: TCO-PEG4", "quantity": "second order rate constant", "value": "39000 ± 2500 M⁻¹ s⁻¹"}
{"SMILES": "Nc1ncc(-c2cc(-c3cnn(CC(F)(F)F)c3)ncc2F)nc1C(=O)NC1CNCC(F)C1 (centres unmarked)", "target or system": "ANKK1", "assay": "KINOMEscan", "conditions": "1 µM", "how to read": "baseline: DMSO control", "quantity": "remaining binding", "value": "24%"}
{"SMILES": "CN1CCC[C@]1(C)/C=C/S(=O)(=O)NC(=O)Nc1c2c(cc3c1CCC3)CCC2", "assay": "IL-1β release", "system": "human, whole blood ex vivo", "conditions": "oral, 100 mg twice daily, day 14, 336 h, multiple ascending dose, together with: LPS and ATP", "quantity": "inhibition", "value": "99.6%"}
{"SMILES": "CCC(=O)N[C@@H](C)C(=O)OCC(=O)N[C@@H](C)C(=O)O", "system": "water", "conditions": "pH 2, 37 °C", "quantity": "side-chain scission rate constant", "value": "0.0009 h⁻¹"}
{"SMILES": "O=C(C=Cc1ccccc1)Nc1ccc(-c2ccc(NC(=O)C=Cc3ccccc3)cc2)cc1", "assay": "carrageenan paw oedema", "system": "albino rat", "conditions": "oral, 50 mg/kg, 3 h", "quantity": "inhibition", "value": "16.2%"}
{"SMILES": "Cc1ncsc1-c1ccc(C(C)NC(=O)C2CC(O)CN2C(=O)C(NC(=O)CCCCCCCCCCN2CCCC(Nc3ncc(Cl)c(Nc4ccccc4S(=O)(=O)C(C)C)n3)C2)C(C)(C)C)cc1 (centres unmarked)", "target or system": "22Rv1", "assay": "RNA-seq, measured: LRFN3 mRNA", "conditions": "concentration not given", "how to read": "baseline: DMSO", "quantity": "log2 fold change", "value": -1.25}
